Published values collected from several papers.
Each line is one published result; not all experiments were run side by side. ± marks the error that the study gave. Values after ≈ are worked out from the molar mass of the structure shown.

SMILES | test | test system | setting | scale | quantity | value
O=C(Nc1cnccc1-c1ccc([18F])nc1)c1ccnc(NC(=O)C2CC2)c1 |  | mice, transgenic, GSK-3β, early-stage, bone | intravenous, dose not given, 120 min |  | SUV | 0.346
C=CC[C@@H]1/C=C(\C)C[C@H](C)C[C@H](OC)[C@H]2O[C@@](O)(C(=O)C(=O)N3CCCC[C@H]3C(=O)O[C@H](/C(C)=C/[C@@H]3CC[C@@H](O)[C@H](OC)C3)[C@H](C)[C@@H](O)CC1=O)[C@H](C)C[C@@H]2OC |  | kidney transplant recipients, CYP3A5 *1/*1 and *1/*3, whole blood | oral, dose not given, late phase, limited sampling |  | dose-normalized AUC(0-12h) | 95 ± 42 ng·h/mL
CN1CCCNC(=O)c2cccc(c2)C(=O)NCCCN(C)CCCNc2cccc3c2C(=O)c2cccc(c2C3=O)NCCC1 |  | nude mice, serum | dose not given, 10 days |  | CRE | 0.13 U/L
O=C(O)CCCOc1ccc([18F])cc1-c1cc(-c2ccccc2C(F)(F)F)n(-c2ccccc2)n1 | OLINDA/EXM from mouse data, item: Urinary bladder wall | human adult |  |  | absorbed dose | 10.5 µGy/MBq
COc1cccc(OC)c1-c1cc(C(=O)NC2(C(=O)O)C3CC4CC(C3)CC2C4)nn1-c1ccc(C(=O)NCCNC(=O)[C@H](CCCCNC(=O)[C@H](CC(C)C)NC(=O)C2OC2C(=O)O)NC(=O)CN2CCN(CC(=O)[O-])CCN(CC(=O)[O-])CCN(CC(=O)[O-])CC2)cc1C(C)C.[177Lu+3] (mixture of isomers) |  | mouse, HT-29 xenograft | 24 h post injection, biodistribution | reference: tumour over lung uptake | tumour-to-lung ratio | 3.58
FC(F)(F)C1(c2ccc(CN3CCN(C(c4ccccc4)c4ccc(Cl)cc4)CC3)cc2)CCC1 (stereo not shown) |  | PBS | pH 7.4, 25 °C, 2% DMSO |  | solubility | 8 µM (≈ 3.99 µg/mL)
C[C@]12C[C@H](c3ccc(S(C)(=O)=O)cc3)C3=C4CCC(=O)C=C4CC[C@H]3[C@@H]1CC[C@@]2(O)C(F)(F)C(F)(F)F | item: compound (parent) | healthy human volunteers, pooled plasma | oral, 5 mg daily, day 28, 2.5 h |  | plasma concentration | 28.4 ng/mL
CNCc1ccc(-c2cc(=O)c3ccc4[nH]c(C(F)(F)F)nc4c3o2)cc1 |  | ICR mice | 5 mg/kg |  | oral bioavailability | 6.99%
CSCC[C@H](N)C(=O)N[C@@H](CO)C(=O)N[C@H](C(=O)N[C@@H](C)C(=O)NCC(=O)N[C@@H](CC(C)C)C(=O)N[C@@H](CCCCN)C(=O)N[C@@H](CCCCN)C(=O)N[C@@H](CCC(N)=O)C(=O)N[C@@H](Cc1c[nH]c2ccccc12)C(=O)N[C@@H](Cc1c[nH]cn1)C(=O)N[C@@H](CCCCN)C(=O)N[C@@H](C)C(=O)N[C@H](C(=O)N[C@@H](CCC(N)=O)C(=O)N[C@@H](CCCCN)C(=O)N[C@H](C(=O)N[C@@H](CO)C(=O)N[C@@H](CCC(=O)O)C(=O)N[C@@H](CCCCN)C(=O)N[C@H](C(=O)NCC(=O)NCC(=O)N[C@@H](C)C(N)=O)C(C)C)C(C)C)[C@@H](C)O)C(C)C | circular dichroism | aqueous TFE | 50 µM, pH 7.4, 20 °C |  | m value | 2.6 ± 0.3 kcal/mol/M
O=c1c(O)c(-c2ccc(N(c3ccccc3)c3ccccc3)cc2)oc2cc3ccccc3cc12 |  | DMSO | together with: visible light |  | CO release quantum yield | 0.006
CCC(CC)n1c(Cc2ccco2)nc2cc(C(=O)N[C@@H](CC(=O)O)c3ccccc3)ccc21 |  | male Sprague-Dawley rat, plasma | intraperitoneal, 10 mg/kg |  | Cmax | 2540 ng/mL
CCn1nc(Cl)c2c1-c1cnc(N)c(c1)O[C@H](C)c1cc(F)ccc1-c1nn(C)cc1C2 |  | Balb/c nude mouse, female, plasma | 0.2 mg/kg twice daily for 5 days, 1 h |  | free plasma concentration | 2.1 nM
C=C(NC(=O)c1csc(-c2nc3c(cc2O)-c2nc(cs2)C(=O)NC(C(C)O)C(=O)NC(=C(C)OC)c2nc(cs2)C(=O)NC2c4nc(cs4)C(=O)NC(COC(=O)c4c5c6c(cccc6n4O)COC(=O)C(OC4CC(C)(O)C(N(C)C)C(C)O4)C2OC5)c2nc-3cs2)n1)C(N)=O (stereo not shown) |  | cynomolgus monkey, both sexes | intravenous infusion | reference: hepatic blood flow | blood clearance | 5.95%
CN(O)C(=O)CCC(=O)NCCCN(CCCCN(CCCNC(=O)CCC(=O)N(C)O)C(=O)CCC(=O)N(C)O)C(=O)CCC(=O)N(C)O.[89Zr] |  | human plasma | 1 d, 37 °C |  | intact complex | 99.9%
COc1cccc(OC)c1-c1cc(C(=O)NC2(C(=O)O)C3CC4CC(C3)CC2C4)nn1-c1ccc(C(=O)N(C)CCOCCN(C)C(=O)[C@H](CCCCNC(=O)[C@H](CC(C)C)NC(=O)C2OC2C(=O)O)NC(=O)CN2CCN(CC(=O)[O-])CCN(CC(=O)[O-])CCN(CC(=O)[O-])CC2)cc1C(C)C.[177Lu+3] (mixture of isomers) |  | mouse, HT-29 xenograft | 168 h post injection, biodistribution | reference: tumour over lung uptake | tumour-to-lung ratio | 4.03
C/C(N)=N/C(=N\S(=O)(=O)c1ccc(C(F)(F)F)cc1)N1C[C@H](c2ccccc2)C(c2ccc(Cl)cc2)=N1 |  | male C57BL/6 mouse, liver | oral, 10 mg/kg |  | half-life | 3.3 h
Cc1ccc(CN2C(=O)/C(=N\c3ccc(Cl)cc3Br)c3ccccc32)cc1 |  | mouse, blood | 100 mg/kg |  | MCV | 44.7 ± 1.4 fL
C=CC(=O)Nc1cccc(Cn2ncc3cnc(Nc4cnn(CCOC)c4)nc32)c1 |  | human, both sexes, whole blood | 5 µM, 120 min |  | remaining compound | 64.3%
CCC(=O)N(C)c1ccc(Cl)c(Cl)c1 |  | mouse C57BL/6, female, plasma | oral, 10 mg/kg, 4 h, 2 of 3 mice below LOQ |  | plasma concentration | 10.4 ng/mL
CC[C@H](C)[C@@H]1NC(=O)[C@H](Cc2ccc(O)cc2)NC(=O)CCCSC[C@@H](C(=O)N(CC(=O)N[C@@H](CC(C)C)C(=O)NCC(N)=O)Cc2ccc(F)cc2)NC(=O)[C@H](CC(N)=O)NC(=O)[C@H](CCC(N)=O)NC1=O |  | human | intranasal, 5 µg single |  | drug-related dry mouth | 33%
O=C(Nc1cnccc1-c1ccc([18F])cc1)c1ccnc(NC(=O)C2CC2)c1 | ex vivo gamma counting | GSK-3β transgenic mice, late-stage, bladder | intravenous, 120 min, mean, no P-gp inhibitor |  | SUV | 0.84
[123I]c1ccc2nc(-c3ccc(-n4ccnn4)nc3)cn2c1 |  | Wistar rat, male, red marrow | intravenous, 4 MBq, 1 h |  | tissue uptake | 0.107 ± 0.018 %ID/g
COc1cccc(OC)c1-c1cc(C(=O)NC2(C(=O)O)C3CC4CC(C3)CC2C4)nn1-c1ccc(C(=O)N(C)CCCN(C)C(=O)[C@H](CCCCNC(=O)[C@H](CC(C)C)NC(=O)C2OC2C(=O)O)NC(=O)CN2CCN(CC(=O)[O-])CCN(CC(=O)[O-])CCN(CC(=O)[O-])CC2)cc1C(C)C.[177Lu+3] (mixture of isomers) |  | mouse HT-29 xenograft | 4 h, biodistribution | reference: tumour over large intestine | tumour-to-large intestine ratio | 7.72
C=CC(=O)Nc1cc(Nc2nccc(-c3cn(C)c4ccccc34)n2)c(OC)cc1N(C)CCNC | storage stability | human plasma | 10 d, -80 °C, LLOQ level |  | recovery | 92.7%
CCCCC/C=C\CCCO[Si](CCCCN(C)C)(OCCC/C=C\CCCCC)OCCC/C=C\CCCCC |  |  | pH 5.5, formulated |  | zeta potential | 2.69 mV

For quick reference, copied from above:
SMILES | test | test system | setting | scale | quantity | value
CCC(CC)n1c(Cc2ccco2)nc2cc(C(=O)N[C@@H](CC(=O)O)c3ccccc3)ccc21 |  | male Sprague-Dawley rat, plasma | intraperitoneal, 10 mg/kg |  | Cmax | 2540 ng/mL
O=c1c(O)c(-c2ccc(N(c3ccccc3)c3ccccc3)cc2)oc2cc3ccccc3cc12 |  | DMSO | together with: visible light |  | CO release quantum yield | 0.006
